Results pooled from the literature.
Each line is one published result; not all experiments were run side by side. Several values in a cell are separate wells, animals, samples, runs or records. ± marks the error that the study gave. Converted amounts (≈) assume the structure as drawn.

| SMILES | assay | system | conditions | how to read | quantity | result |
| --- | --- | --- | --- | --- | --- | --- |
| CC[C@H](C)[C@H](NC(=O)[C@H](N)Cc1ccc(O)cc1)C(=O)N[C@H]1CSSC[C@@H](C(=O)N(C)[C@H](C(=O)N[C@@H](CCCCN)C(=O)N[C@@H](CCCCN)C(N)=O)[C@@H](C)CC)NC(=O)[C@H](CCCNC(=N)N)NC(=O)[C@H](Cc2c[nH]cn2)NC(=O)[C@H](C)NC(=O)CN(C)C(=O)[C@H](Cc2c[nH]c3ccccc23)NC(=O)[C@H](CC(=O)O)NC(=O)[C@H](CCC(N)=O)NC(=O)[C@H](Cc2cn(C)c3ccccc23)NC(=O)[C@H](C(C)C)NC1=O | SPR-based competition | cynomolgus monkey, vitreous | intravitreal, 500 µg single, one month after injection, mean of eyes |  | concentration | ~200 nM |
| Cc1nn(-c2nc3c(F)cc(F)cc3s2)c(O)c1C(c1ccc(C(F)(F)F)cc1)c1c(C)nn(-c2nc3c(F)cc(F)cc3s2)c1O |  | ICR mouse, plasma | oral, 50 mg/kg |  | AUMC(0-last) | 1.43e+06 h²·ng/mL and 1.54e+06 h²·ng/mL and 2.28e+06 h²·ng/mL |
| O=C(Nc1cnccc1-c1ccc([18F])cc1)c1ccnc(NC(=O)C2CC2)c1 |  | mice, transgenic, GSK-3β, early-stage, stomach | intravenous, dose not given, 120 min, added: tariquidar 15 mg/kg i.v. pre-dose |  | SUV | 1.74 |
| COCC1CN(C2CCN(c3cc(OC)c(Nc4ncc(Br)c(Nc5ccc6c(c5P(C)(C)=O)OCCO6)n4)cc3C)CC2)C1 |  | EGFR-mutant NSCLC patients, plasma | oral, 30 mg single dose, geometric mean |  | AUC(0-t) | 4480 ng·h/mL |
| O=C1c2sc(-c3ccc(N4CCC(CO)CC4)nc3F)nc2CCN1c1cccnc1 |  | CD1 mouse, brain | i.v., dose not given, 0.5 h |  | concentration | 11.2 ng/g |
| CCCCN1C(=O)c2cccc3c(NCCCCCN4CCOCC4)ccc(c23)C1=O |  | chloroform |  |  | Stokes shift | 74 nm |
| COc1cccc(OC)c1-c1cc(C(=O)NC2(C(=O)O)C3CC4CC(C3)CC2C4)nn1-c1ccc(C(=O)N(C)CCCN(C)CCCN(C)C(=O)[C@H](CCCCNC(=O)[C@H](CC(C)C)NC(=O)C2OC2C(=O)O)NC(=O)CN2CCN(CC(=O)[O-])CCN(CC(=O)[O-])CCN(CC(=O)[O-])CC2)cc1C(C)C.[177Lu+3] (mixture of isomers) |  | mouse HT-29 xenograft | 24 h, biodistribution | baseline: tumour over stomach | tumour-to-stomach ratio | 26 |
| O=S1(=O)CC2CCCCC2CS1 (stereo not shown) | phase solubility, NMR | water | 25 °C, added: hydroxypropyl-β-cyclodextrin 176 mM |  | solubility | 21.4 mM (≈ 4420 µg/mL) |
| CCCCN1C(=O)c2cccc3c(NCCCN4CCOCC4)ccc(c23)C1=O |  | dichloromethane |  |  | fluorescence quantum yield | 0.46 |
| CCc1cnc(NC(=O)c2cc(S(=O)(=O)N3CCOCC3)ccc2N(C)C2CCCC2)s1 |  | mouse, serum | 10 mg/kg, 3 doses |  | Sodium | 154 mEq/L |
| O=C(Nc1cnccc1-c1ccc([18F])nc1)c1ccnc(NC(=O)C2CC2)c1 |  | mice, transgenic, GSK-3β, early-stage, spleen | intravenous, dose not given, 120 min, added: tariquidar 15 mg/kg i.v. pre-dose |  | SUV | 0.173 |
| C=C(NC(=O)c1csc(-c2nc3c(cc2O)-c2nc(cs2)C(=O)NC(C(C)O)C(=O)NC(=C(C)OC)c2nc(cs2)C(=O)NC2c4nc(cs4)C(=O)NC(COC(=O)c4c5c6c(cccc6n4O)COC(=O)C(OC4CC(C)(O)C(N(C)C)C(C)O4)C2OC5)c2nc-3cs2)n1)C(N)=O (stereo not shown) |  | female cynomolgus monkey, plasma | intravenous, 1 mg/kg, single dose, infusion |  | Tmax | 6.6 min |
| N#C[C@@H]1CC(F)(F)CN1C(=O)CNC(=O)c1ccnc2c(NC(=O)CCOCCOCCOCCOCCOCCOCCNC(=O)C(CCCCNC(=O)CN3CCN(CC(=O)[O-])CCN(CC(=O)[O-])CCN(CC(=O)[O-])CC3)NC(=O)CCCc3ccc(I)cc3)cccc12.[68Ga+3] (stereo partly shown) |  | human serum | 120 min, 37 °C, 68Ga-labelled |  | radiochemical stability | 97.79 ± 0.6% |
| COc1ccc2c(c1)CN(C(=O)CCN1CCC(Cc3ccccc3)CC1)CC[S+]2[O-] (stereo not shown) |  | human plasma | 250 ng/mL |  | fu | 0.139 |
| Cc1ccc(OCC(=O)N(Cc2cccs2)c2ccn[nH]2)cc1 |  | Sprague-Dawley rat liver microsomes | 10 µM, 60 min, NADPH present |  | remaining compound | 1% |
| CCCC[C@H](OC(C)=O)c1ccccc1C(=O)O |  | Sprague-Dawley rats, both sexes, whole blood | intravenous, 5 mg/kg single dose |  | clearance | 12.2 ± 2.13 mL/min/kg |

| SMILES | assay | system | conditions | how to read | quantity | result |
| --- | --- | --- | --- | --- | --- | --- |
| Cc1nc(N)nc2c1C(=O)N[C@@H](c1ccc(F)cc1-c1cccc(O[11CH3])n1)C2 | ex vivo biodistribution | healthy mice, liver | 60 min post-injection, baseline, vehicle pre-treatment |  | tracer uptake | 13.4 ± 0.5 %ID |
| COc1cc2c(cc1OC)[C@H]1C[C@@H](O)[C@H](CC(C)C)CN1CC2 | refers to: non-deuterated analyte | healthy human male, plasma | oral, 25 mg, geometric mean, [14C]-tetrabenazine dosed |  | MRT(0-t) | 428 min |
| N=C(N)NCCC[C@@H]1NC(=O)[C@H](CO)NC(=O)[C@@H](NC(=O)[C@H](CO)NC(=O)[C@H](CO)NC(=O)[C@H](Cc2c[nH]c3ccccc23)NC(=O)CNC(=O)[C@H](CO)NC(=O)[C@@H](N)Cc2c[nH]c3ccccc23)CSSC[C@@H](C(=O)NCC(=O)O)NC(=O)[C@H](CO)NC1=O |  | healthy elderly humans | dose not given, younger subgroup, higher dose |  | adaptive tracking performance decrease | 3 to 5% |
| C=CC(=O)Nc1cc(Nc2nccc(-c3c[nH]c4ccccc34)n2)c(OC)cc1N(C)CCN(C)C | storage stability | human dried blood spots | 5 h, on ice, LLOQ level |  | recovery | 88.1% |
| COc1ccc(/C=C/c2nc3c(Nc4ccc(Cl)cc4)ncnc3[nH]2)cc1OC | HPLC | solution, dark | before light exposure |  | purity | 99.7% |
| N#C[C@@H]1CC(F)(F)CN1C(=O)CNC(=O)c1ccnc2c(NC(=O)[C@H](CCCCNC(=O)CCOCCOCCOCCOCCOCCOCCNC(=O)CN3CCN(CC(=O)[O-])CCN(CC(=O)[O-])CCN(CC(=O)[O-])CC3)NC(=O)CCCc3ccc(I)cc3)cccc12.[177Lu+3] |  | PBS | 4 h, 37 °C, 177Lu-labelled |  | radiochemical stability | 98.5 ± 0.5% |
| CCCCN1C(=O)c2cccc3c(NCCCCCCCCN4CCOCC4)ccc(c23)C1=O |  | acetonitrile |  |  | Stokes shift | 94 nm |
| CC[C@H](C)[C@@H]1NC(=O)[C@H](Cc2ccc(O)cc2)NC(=O)CCCSC[C@@H](C(=O)N(CC(=O)N[C@@H](CC(C)C)C(=O)NCC(N)=O)Cc2ccc(F)cc2)NC(=O)[C@H](CC(N)=O)NC(=O)[C@H](CCC(N)=O)NC1=O |  | human, plasma | intranasal, 400 µg, single dose |  | terminal half-life | 36 min |
| C=CC(=O)N1CCC[C@@H](c2ccc(C(N)=O)c3[nH]ccc23)C1 |  | mouse, TMD8 tumour-bearing, plasma | 15 mg/kg twice daily, 12 h |  | trough concentration | 0.391 ng/mL |
| CN1CCC[C@]1(C)/C=C/S(=O)(=O)NC(=O)Nc1c2c(cc3c1CCC3)CCC2 | refers to: Pyrexia, possibly related | human | oral, 50 mg twice daily, 14 days, multiple ascending dose |  | subjects with adverse event | 16.7% |
| O=S(=O)(N[C@H]1CCO[C@@H](C2c3ccccc3CCc3ccccc32)C1)c1ccc(OC(F)(F)F)cc1 |  | mouse, brain | oral, 30 mg/kg, 2 h |  | brain concentration | ~2000 nM |
| CCCCN1C(=O)c2cccc3c(NCCCCCCN4CCOCC4)ccc(c23)C1=O |  | dichloromethane |  |  | Stokes shift | 90 nm |
| N#C[C@@H]1CC(F)(F)CN1C(=O)CNC(=O)c1ccnc2c(NC(=O)C(N)CCCCNC(=O)CCOCCOCCOCCOCCOCCOCCNC(=O)CN3CCN(CC(=O)[O-])CCN(CC(=O)[O-])CCN(CC(=O)[O-])CC3)cccc12.[68Ga+3] (stereo partly shown) |  | PBS | 30 min, 37 °C, 68Ga-labelled |  | radiochemical stability | 99.31 ± 0.4% |
| C/C(N)=N/C(=N\S(=O)(=O)c1ccc(C(F)(F)F)cc1)N1C[C@H](c2ccccc2)C(c2ccc(Cl)cc2)=N1 |  | male C57BL/6 mouse, kidney | intravenous, 10 mg/kg |  | Cmax | 16000 ng/mL |
| CC[C@H](C)[C@H](NC(=O)[C@H](Cc1ccc(O)cc1)NC(=O)[C@@H](NC(=O)[C@H](CCCNC(=N)N)NC(=O)[C@@H](N)CC(=O)O)C(C)C)C(=O)N[C@@H](Cc1c[nH]cn1)C(=O)N1CCC[C@H]1C(=O)O | LC-MS/MS | Sprague-Dawley rat, both sexes, plasma | subcutaneous, 10 mg/kg/day, day 0, 1.5 h, 90 min |  | plasma concentration | 2.91 ng/mL |

Repeated from above:
| SMILES | assay | system | conditions | how to read | quantity | result |
| --- | --- | --- | --- | --- | --- | --- |
| CCCCN1C(=O)c2cccc3c(NCCCN4CCOCC4)ccc(c23)C1=O |  | dichloromethane |  |  | fluorescence quantum yield | 0.46 |
| CCc1cnc(NC(=O)c2cc(S(=O)(=O)N3CCOCC3)ccc2N(C)C2CCCC2)s1 |  | mouse, serum | 10 mg/kg, 3 doses |  | Sodium | 154 mEq/L |
| O=C(Nc1cnccc1-c1ccc([18F])nc1)c1ccnc(NC(=O)C2CC2)c1 |  | mice, transgenic, GSK-3β, early-stage, spleen | intravenous, dose not given, 120 min, added: tariquidar 15 mg/kg i.v. pre-dose |  | SUV | 0.173 |
